Results of several laboratories.
Every numbered part comes from another study and shows a few of its results, in no order.

Block 1
Target: Histone acetyltransferase KAT6A, winged helix 2, GST fusion (KAT6A, Homo sapiens, UniProt Q92794, residues 85-181)
Method: protein binding microarray
Form: double-stranded DNA, one strand shown
Sample: in vitro
Concentration: not given
Notes: 8-mer, flanks averaged, mean of 2 arrays, mostly near background
Relative to: not given
Direction: higher = stronger binding
Target sequence (chain): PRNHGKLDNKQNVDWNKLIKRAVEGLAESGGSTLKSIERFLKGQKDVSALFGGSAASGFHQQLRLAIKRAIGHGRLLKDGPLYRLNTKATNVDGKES
`ATACGCGA` gave an E-score of -0.0236.
The E-score of `GGCACACC` is reported as -0.153.
For `CAAACATC`, the E-score was -0.0283.
`ATCATAAT` has an E-score of -0.00747.
The E-score of `ACTAGTCC` is reported as -0.0246.
With `GTCCGTCA` the E-score was -0.0637.
For `ACAAAGAG`, the E-score was 0.0256.
The E-score of `CGAACCTA` is reported as -0.00503.

Block 2
Target: Interferon regulatory factor 7, full length, phosphomimetic (IRF7, Homo sapiens, UniProt Q92985, residues 1-503, S101K/S471D/S472D/S475D/S476D/S477D/S483D/S484D/S487D)
Chain of UniProt Q92985 (whole entry, unmodified, looked up): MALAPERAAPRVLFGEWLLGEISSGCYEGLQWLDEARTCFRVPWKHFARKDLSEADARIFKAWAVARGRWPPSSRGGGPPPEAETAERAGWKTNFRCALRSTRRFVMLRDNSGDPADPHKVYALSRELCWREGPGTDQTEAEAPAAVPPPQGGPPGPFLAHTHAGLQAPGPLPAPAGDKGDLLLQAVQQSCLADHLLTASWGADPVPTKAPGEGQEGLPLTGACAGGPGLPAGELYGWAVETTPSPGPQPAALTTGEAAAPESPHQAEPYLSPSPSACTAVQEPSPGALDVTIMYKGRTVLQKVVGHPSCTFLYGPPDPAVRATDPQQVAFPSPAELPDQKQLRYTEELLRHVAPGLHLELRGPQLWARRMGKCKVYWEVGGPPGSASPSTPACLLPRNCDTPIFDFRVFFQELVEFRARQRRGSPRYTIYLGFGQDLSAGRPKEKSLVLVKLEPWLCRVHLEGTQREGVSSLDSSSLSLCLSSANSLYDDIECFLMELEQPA
Method: protein-binding microarray
Form: double-stranded DNA, one strand shown
Sample: in vitro
Concentration: 250 nM
Notes: 60-bp whole probe
Together with: salmon DNA 0.4 mg/ml
Relative to: random background probes
Direction: higher = stronger binding
Shared flanks, not repeated: GCCTAGCAC … GTCTTGATTCGCTTGACGCTGCTG
With `GACGATTACGGGTATCGAGACGTGCTA` the log fluorescence was -0.292 z-score.
`TTAGGTCTCGCTCTCGGTTAGTGCTAG` gave a log fluorescence of 1.14 z-score.
The log fluorescence of `TTAGGACTGCTTGTCCTTTAGTGCTAG` is reported as -0.116 z-score.
`GACGAACTGGGGACCGGAGACGTGCTA` has a log fluorescence of -0.591 z-score.
`GACGGTATCGGGTATCCGGACGTGCTA` has a log fluorescence of 0.116 z-score.
For `AGACTTCTCCATTTTTCTAGGTGCTAG`, the log fluorescence was 0.341 z-score.
For `TCAGGTTTTCTAATGTTACTGTGCTAG`, the log fluorescence was 0.685 z-score.

Block 3
Target: RNA binding protein fox-1 homolog 2, RRM domain, GST-SBP tag (RBFOX2, Homo sapiens, UniProt O43251-10, residues 100-194)
Method: RNA Bind-n-Seq
Form: RNA
Sample: in vitro
Concentration: 365 nM
Notes: natural RNA segment, single round, ends assumed
Relative to: no-protein control
Direction: higher = stronger binding
Construct (chain): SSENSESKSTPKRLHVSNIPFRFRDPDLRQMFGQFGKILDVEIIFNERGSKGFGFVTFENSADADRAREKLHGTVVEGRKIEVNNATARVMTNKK
`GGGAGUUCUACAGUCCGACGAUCGCCUUUUGCUAAGCGAUCUCUAUGCCUGGGAUGCCCUUUAUUCCAGGAGGCAUCAAGCCUCUAAAGAAUGUCUCACCUCCUCUGCCCAAAAAUGAUGCCUUUCUGUAGGCUGGAAUUCUCGGGUGCCAA`: “RBNS enrichment (R)” 0.325.
Under “RBNS enrichment (R)”, `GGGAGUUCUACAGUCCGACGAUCAUAGUGUAUAACCUUGUGUUCAUGAAACAGGUUGUUCAUUGUUCUGCAUCUCUCUUCAUUUAAAAAGGAUACACAAUUCUUUCCUCAUUGCAUAUUACACCAAACGUUUGUGGAAUUCUCGGGUGCCAA` is recorded as 1.2.
`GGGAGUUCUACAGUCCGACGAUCUGGGUUGGUUCCUAUUACAUGAGCUCUUUUGCAGAUAGCACAUUCAGUAGCCUUAUCCUGUUGGUGGAAUACUGUACCAUAUGCUCCUCCAAAACCCAUGAACACGGCCAUGGAAUUCUCGGGUGCCAA` — result for “RBNS enrichment (R)”: 0.262.
Under “RBNS enrichment (R)”, `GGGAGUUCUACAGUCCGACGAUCGGCCUUAGCAGAAGUGACUGACUUAAAGUGUUUUAGUUUCUUACUGAUGAGUGAAUUCAGUUCCCUACCAACUAAUGCGCAGAAUUGAAGAAUCCCAUCCUGCACACAUUUGGAAUUCUCGGGUGCCAA` is recorded as 0.802.
Under “RBNS enrichment (R)”, `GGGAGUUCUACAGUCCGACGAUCUCCAAAAGAUUUGCCAAAUAACAAGCGCACAUAGUGUGCACUGUUGGAGACUGAAAAUGCCUACUGUAUUGAUGUCUUUAUUCUUUGGUGAAUCAAAAGUUUUAAAAGUAUGGAAUUCUCGGGUGCCAA` is recorded as 0.31.
`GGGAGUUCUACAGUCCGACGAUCUUCUGGAAUUGGGGGACCCCCGCCAAAGACUGAGCCCCCUGUCUCCUCCAUCAUUUGGUUUCCUCUUGGCUUUGGGGAUACUUCUAAAUUUUGGGAGCUCCUCCAUCUCCUGGAAUUCUCGGGUGCCAA` — result for “RBNS enrichment (R)”: 0.355.

Mixed results
The fold induction of `PhoQ, residues 284 288 289 292 302 303 TLASMF` is reported as 32.1 (PhoP, residues 12 14 15 18 19 MHTVL (Escherichia coli, UniProt P23836); Sort-seq, item: YFP reporter; E. coli; PhoQ-PhoP variant library, together with: 10 µM Mg2+; relative to: high Mg2+ state, higher = stronger signaling).

For quick reference, copied from above (block 1):
`ATACGCGA` gave an E-score of -0.0236.
